Assay results gathered from unrelated publications.
Protocols differ between the studies behind these lines. Values after ≈ are worked out from the molar mass of the structure shown.
Organism: Mycolicibacterium smegmatis

CC[C@H](C)[C@H](NC(=O)[C@H](C)NC(=O)[C@H](C)NC(=O)[C@H](Cc1ccccc1)NC(=O)[C@H](C)NC(=O)CNC(=O)[C@H](Cc1ccccc1)NC(=O)[C@@H](N)Cc1ccccc1)C(=O)N[C@@H](C)C(=O)N[C@@H](CO)C(=O)N[C@@H](CC(C)C)C(=O)N[C@H](C(=O)N[C@H](C(=O)N1CCC[C@H]1C(=O)N[C@@H](CCCCN)C(=O)N[C@@H](CC(C)C)C(=O)N[C@H](C(=O)N[C@@H](CCC(=O)O)C(=O)N[C@@H](CCCCN)C(=O)N[C@H](C(=O)N[C@@H](CCCCN)C(=O)N[C@@H](CCC(N)=O)C(=O)N[C@@H](C)C(=O)N[C@@H](CCCNC(=N)N)C(N)=O)[C@@H](C)CC)[C@@H](C)CC)[C@@H](C)CC)C(C)C
MIC (ATP luminescence; ATCC 607; 48 h): > 50 µM

CCCCCCCC/C=C\CCCCc1cc(=O)c2ccccc2n1C
MIC (microbial growth; MC^2155; 72 h): 28.3 µM

CC(C)=CCC/C(C)=C/CNCCOC1C2CC3CC(C2)CC1C3 (centres unmarked)
IC50 (microbial growth): 1.6 µg/mL (≈ 4.83 µM)

CC[C@H](C)[C@H](NC(=O)[C@H](CCC(N)=O)NC(=O)[C@@H]1CCCN1C(=O)[C@@H](NC(=O)[C@@H](NC(=O)[C@H](Cc1ccc(O)cc1)NC(=O)[C@H](C)NC(=O)[C@H](C)NC(=O)[C@H](CC(C)C)NC(=O)[C@H](CCCCN)NC(=O)[C@H](C)NC(=O)[C@H](CC(C)C)NC(=O)[C@H](CC(C)C)NC(=O)CNC(=O)[C@@H](NC(=O)[C@@H](N)Cc1ccccc1)C(C)C)C(C)C)[C@@H](C)CC)C(=O)N[C@H](C(=O)N[C@@H](CCCCN)C(=O)N[C@@H](CCCNC(=N)N)C(=O)N[C@@H](Cc1ccccc1)C(=O)N[C@@H](CCC(N)=O)C(=O)N[C@@H](CCCCN)C(=O)N[C@@H](CCCCN)C(=O)N[C@@H](CCCCN)C(N)=O)C(C)C
MIC (ATP luminescence; ATCC 607; 48 h): 25 to 50 µM

CC(=O)NC1C(OC2OC(CC(O)C3OC(n4ccc(=O)[nH]c4=O)C(O)C3O)C(O)C(O)C2NC(=O)C=CCCCCCCCCCC(C)C)OC(CO)C(O)C1O (centres unmarked)
MIC (ATCC 607): > 50 µg/mL

COc1ccc(-c2cc(=O)c3c(O)c(OC)c(O)cc3o2)cc1
activity (ATCC 1441; concentration not given): inactive

CCCCCCCCC/C=C\CCCc1cc(=O)c2ccccc2n1C
MIC (microbial growth; MC^2155; 72 h): 28.3 µM

CC(=O)NC1C(OC2OC(CC(O)C3OC(n4ccc(=O)[nH]c4=O)C(O)C3O)C(O)C(O)C2NC(=O)COCc2ccc(N3CCC(Oc4ccc(OC(F)(F)F)cc4)CC3)cc2)OC(CO)C(O)C1O (centres unmarked)
MIC (ATCC 607): > 50 µg/mL

CC[C@H](C)[C@H](NC(=O)[C@@H]1CC(=O)N[C@@H](CO)C(=O)N[C@@H](CC(C)C)C(=O)NCC(=O)N[C@@H](CO)C(=O)N[C@@H](CO)C(=O)N2CCC[C@H]2C(=O)N[C@@H](Cc2ccc(O)cc2)C(=O)N[C@@H](CC(N)=O)C(=O)N1)C(=O)N[C@@H](CC(C)C)C(=O)NCC(=O)N[C@@H](Cc1ccc(O)cc1)C(=O)N1CCC[C@H]1C(=O)N[C@@H](C)C(=O)N[C@@H](CC(C)C)C(=O)N[C@H](C(=O)N[C@H](C(=O)N[C@H](C(=O)N[C@@H](Cc1ccc(O)cc1)C(=O)N1CCC[C@H]1C(=O)O)[C@@H](C)CC)C(C)C)[C@@H](C)CC
MIC: > 128 µg/mL

N#Cc1c2nc3ccccc3nc2n2ccc(NC(=O)c3ccccc3Cl)cc12
MIC50 (pTet-ClpP1P2 chromosomal): > 100 µM

CC[C@H](C)[C@H](NC(=O)CNC(=O)[C@@H](NC(=O)[C@@H](N)Cc1ccccc1)[C@@H](C)CC)C(=O)N[C@@H](CCSC)C(=O)N[C@@H](C)C(=O)N[C@H](C(=O)N[C@@H](CC(C)C)C(=O)N[C@@H](C)C(=O)N[C@@H](CO)C(=O)N[C@@H](CC(C)C)C(=O)N[C@H](C(=O)N[C@H](C(=O)N1CCC[C@H]1C(=O)N[C@@H](CCCCN)C(=O)N[C@@H](CC(C)C)C(=O)N[C@H](C(=O)N[C@@H](CCC(=O)O)C(=O)N[C@@H](CCCCN)C(=O)N[C@H](C(=O)N[C@@H](CCCCN)C(=O)N[C@@H](CCC(N)=O)C(=O)N[C@@H](C)C(=O)N[C@@H](CCCNC(=N)N)C(N)=O)[C@@H](C)CC)[C@@H](C)CC)[C@@H](C)CC)C(C)C)[C@@H](C)O
MIC (ATP luminescence; ATCC 607; 48 h): > 50 µM
